Measured values pooled from the literature.
“And” joins repeats or separate records; there may be more than shown. Numbers after ± are the reported error. Converted amounts (≈) assume the structure as drawn.

SMILES | organism | test | system | setting | scale | measurement | value
Cc1cc(C(=O)Nc2nc3cccc(C)c3n2[C@H]2CCCCN(C(=O)/C=C/CN(C)C)C2)ccn1 | Trypanosoma brucei | propidium iodide flow cytometry, measured: S phase | bloodstream parental line | concentration not given | – | cell cycle distribution | 16.6% and 15.8% and 18.2%
CC(O)CN(CC(C)O)CC(C)O.O=C(O)C(Cl)Cl (stereo not drawn) | Eclipta prostrata | – | – | 15 mg/mL, 21 days, post-emergence, greenhouse | – | herbicidal inhibition | -26%
[O-][N+]1=C(c2ccccc2)C2=NCCN2c2ccccc21 | Parabacteroides distasonis and Bacteroides spp. | bacterial growth | – | – | – | MIC90 | ≤ 0.06 µg/mL
CCCCSC(SCCCC)c1ccc(OCCNS(=O)(=O)c2ccc(F)cc2)c(OC)c1 | Tobacco mosaic virus | inactivation activity | plant in vivo | – | – | EC50 | 48.1 ± 2 µg/mL
CN[C@H](CC(C)C)C(=O)N[C@H]1C(=O)N[C@@H](CC(N)=O)C(=O)N[C@H]2C(=N)N[C@H]3C(=O)N[C@H](C(=O)N[C@H](C(=O)O)c4cc(O)cc(O)c4-c4cc3ccc4O)[C@H](O)c3ccc(c(Cl)c3)Oc3cc2cc(c3O)Oc2ccc(cc2Cl)[C@H]1O | Enterococcus faecium | – | ATCC BAA-2317 VanA | 10 µg/mL | baseline: no antibiotic | accumulation increase | 4 to 6 fold
O=C(NNc1ccccc1)c1nnc(C23CC4CC(CC(C4)C2)C3)o1 | Fusarium oxysporum | microbial growth | – | 50 µg/mL | – | inhibition | 68.2%
Cc1ccc(N2CC3CC(C2)N3C)cc1C(=O)NC1(c2ccc3c4c(cccc24)C(=O)N3C)CC1 | Human coronavirus NL63 | viral replication | – | 1 µM | – | inhibition | 85.5%
CCCSC(SCCC)c1ccc(OCCNS(=O)(=O)c2ccc(Br)cc2)c(Cl)c1 | Tobacco mosaic virus | protective activity | plant in vivo | – | – | EC50 | 636.1 ± 3.2 µg/mL
C#CCN1C(=O)C(CC#C)(C(=O)OCC)Oc2ccccc21 (stereo not drawn) | Eclipta prostrata | – | greenhouse | postemergence, 150 g ai/ha, 21 days | – | fresh weight inhibition | > 75%
CC[C@H](C)CCCCC(=O)N[C@@H](CCN)C(=O)N[C@H](C(=O)N[C@@H](CCN)C(=O)N[C@H]1CCNC(=O)[C@H]([C@@H](C)O)NC(=O)[C@H](CCN)NC(=O)[C@H](CCN)NC(=O)[C@H](CC(C)C)NC(=O)[C@@H](CC(C)C)NC(=O)[C@H](CCN)NC1=O)[C@@H](C)O | Escherichia coli | daily serial passaging | ATCC 8739 | highest sub-MIC, 17 days | baseline: initial MIC | MIC fold change | 2.16
COc1cc(C(SC(C)C)SC(C)C)ccc1OCCNS(=O)(=O)c1ccc(Br)cc1 | Tobacco mosaic virus | inactivation activity | plant in vivo | – | – | EC50 | 63.8 ± 1.2 µg/mL
COc1ccc(C2=[N+]([O-])c3ccccc3N3CCCN=C23)cc1 | Prevotella spp. | bacterial growth | – | – | – | MIC90 | 1 µg/mL (≈ 3.25 µM)
Cc1ccc(S(=O)(=O)NCCOc2ccc(C(SC(C)C)SC(C)C)cc2Cl)cc1 | Tobacco mosaic virus | inactivation activity | plant in vivo | – | – | EC50 | 1232.3 ± 0.4 µg/mL
CCOC(=O)C1(Cc2cc(OC)cc(OC)c2)Oc2cc(F)ccc2N(Cc2cc(OC)cc(OC)c2)C1=O (stereo not drawn) | Echinochloa crus-galli | fresh weight, greenhouse postemergence | – | postemergence, 150 g ai/ha, 21 days | – | inhibition | 53.1 ± 2.76%
C[C@H](NC(=O)[C@@H](O)c1cc(F)cc(F)c1)C(=O)N[C@@H]1C(=O)N(C)c2ccccc2-c2ccccc21 | dengue virus type 2 | viral replication, Renilla luciferase reporter virus | Huh-7.5.1 wild-type | 48 h | – | EC50 | 5 nM
CN(C(=O)c1ccn2ncc(-c3ccc(C(N)=O)cc3)c2c1)c1ccc(C#N)cn1 | Cryptosporidium parvum | – | UGA1 Nluc, IFN-gamma knockout C57BL/6 mice, faeces | oral, 10 mg/kg daily, 336 h post infection, treatment days 11-17 | higher means more parasites | faecal Nluc luminescence | 7330 a.u. and 899 a.u. and 717 a.u. and 195 a.u. and 236000 a.u.
O=C(NC1CC1)c1cc2c(s1)-c1ccccc1N(C(=O)c1ccc(NC(=O)c3cccnc3N3CCC4(CC3)COC4)cc1)CC2 | human respiratory syncytial virus | viral replication | – | – | – | IC50 | 200 nM
C[C@H]1O[C@@H](O[C@H]2CC[C@@]3(C)[C@H](C2)C[C@@H]2O[C@]24[C@@H]3C[C@@H](O)[C@]2(C)[C@@H](C3=CC(=O)OC3)CC[C@@]24O)[C@H](O)[C@H](O)[C@@H]1O[C@@H]1O[C@H](CO)[C@@H](O)[C@H](O)[C@H]1O | Oncopeltus fasciatus | – | – | diet, concentration not given | – | hatchlings per female | 121

SMILES | organism | test | system | setting | scale | measurement | value
COc1ccc(C2=[N+]([O-])c3ccccc3N3CCN=C23)cc1 | Parabacteroides distasonis and Bacteroides spp. | bacterial growth | – | – | – | MIC50 | ≤ 0.06 µg/mL
CC[C@H](C)[C@H](NC(=O)[C@H](CCCNC(=N)N)NC(=O)[C@H](CO)NC(=O)[C@H](Cc1ccc(O)cc1)NC(=O)[C@@H](NC(=O)[C@@H](NC(=O)[C@H](C)NC(=O)CNC(=O)[C@H](CCCCN)NC(=O)[C@H](CCCCN)NC(=O)CCNC(=O)CCCCCNC(=O)[C@H](CCCNC(=N)N)NC(=O)CCCCCNC(=O)[C@H](CCCNC(=N)N)NC(=O)[C@H](CCCNC(=N)N)NC(=O)CCCCCNC(=O)[C@H](CCCNC(=N)N)NC(=O)[C@H](CCCNC(=N)N)NC(=O)CCCCCNC(=O)[C@H](CCCNC(=N)N)NC(=O)[C@H](CCCNC(=N)N)NC(=O)CCCCCNC(=O)[C@@H](N)CCCNC(=N)N)C(C)C)[C@@H](C)O)C(=O)N[C@@H](CO)C(=O)NCC(=O)N[C@@H](CCC(N)=O)C(=O)N[C@@H](Cc1ccc(O)cc1)C(=O)N[C@@H](CCCCN)C(=O)O | Escherichia coli | – | ATCC 25922 | 1 h, 37 °C, after 90% human serum | – | MIC | 48 µM (≈ 171 µg/mL)
CNCCO.O=C(O)C(Cl)Cl | Eleusine indica | – | – | 15 mg/mL, 21 days, pre-emergence, greenhouse | – | herbicidal inhibition | 0%
CCCCSC(SCCCC)c1ccc(OCCNS(=O)(=O)c2c(F)cccc2F)c(OC)c1 | Tobacco mosaic virus | curative activity | plant in vivo | – | – | EC50 | 215 ± 2.9 µg/mL
CCOC(=O)C1(Cc2ccccc2C#N)Oc2cc(F)ccc2N(Cc2ccccc2C#N)C1=O (stereo not drawn) | Eclipta prostrata | fresh weight, greenhouse postemergence | – | postemergence, 150 g ai/ha, 21 days | – | inhibition | 50.2 ± 2.36%
[O-][N+]1=C(c2ccc(Cl)cc2)C2=NCCCN2c2ccccc21 | Parabacteroides distasonis and Bacteroides spp. | bacterial growth | – | – | – | MIC50 | 1 µg/mL (≈ 3.21 µM)
CCCSC(SCCC)c1ccc(OCCNS(=O)(=O)c2cccc(C(F)(F)F)c2)c(OC)c1 | Tobacco mosaic virus | curative activity | plant in vivo | – | – | EC50 | 394 ± 7.5 µg/mL
CCc1nn(C)c2nc(-c3ccc(C(=O)O)cc3)nc(NCc3ccccc3)c12 | Cryptosporidium parvum | – | HCT-8 | 9 x EC90, 72 h | baseline: DMSO control | parasite number | 27% and 23.1% and 16.8% and 26.8%
CCOC(=O)C1(Cc2c(F)cccc2F)Oc2cc(F)ccc2N(Cc2c(F)cccc2F)C1=O (stereo not drawn) | Echinochloa crus-galli | fresh weight, greenhouse postemergence | – | postemergence, 150 g ai/ha, 21 days | – | inhibition | 48 ± 1.79%
[O-][N+]1=C(c2ccsc2)C2=NCCCN2c2ccccc21 | Prevotella spp. | bacterial growth | – | – | – | MIC50 | 0.125 µg/mL (≈ 0.441 µM)
COc1cc(C(SC(C)C)SC(C)C)ccc1OCCNS(=O)(=O)c1cccc(C(F)(F)F)c1 | Tobacco mosaic virus | protective activity | plant in vivo | – | – | EC50 | 578.7 ± 1.7 µg/mL
CC[C@H](C)[C@H](NC(=O)[C@H](C)NC(=O)CNC(=O)[C@H](C)NC(=O)[C@H](CCCCN)NC(=O)[C@H](CO)NC(=O)[C@H](C)NC(=O)[C@H](CCSC)NC(=O)CN)C(=O)N[C@@H](C)C(=O)NCC(=O)N[C@@H](CCCCN)C(=O)N[C@H](C(=O)N[C@@H](C)C(=O)N[C@@H](CCCCN)C(=O)N[C@H](C(=O)N[C@@H](C)C(=O)N[C@@H](CC(C)C)C(=O)N[C@@H](CCCCN)C(=O)N[C@@H](C)C(=O)N[C@@H](CC(C)C)C(N)=O)C(C)C)[C@@H](C)CC | Escherichia coli | – | 0370 nalidixic acid resistant | Loewe additivity, with: nalidixic acid | – | combination index | 1.09
CCOC(=O)C1(Cc2cc(F)cc(F)c2)Oc2cc(F)ccc2N(Cc2cc(F)cc(F)c2)C1=O (stereo not drawn) | Echinochloa crus-galli | fresh weight, greenhouse postemergence | – | postemergence, 150 g ai/ha, 21 days | – | inhibition | 58.2 ± 1.54%
OB(O)c1ccc(C(F)(F)F)s1 | Staphylococcus aureus | – | USA300 wild type | 100 µM | baseline: untreated | growth relative to untreated | 51.8% and 57.9% and 44.1% and 35.5% and 45.2% and 40.9%
CCOC(=O)C1(Cc2ccc(-c3ccccc3)cc2)Oc2cc(F)ccc2N(Cc2ccc(-c3ccccc3)cc2)C1=O (stereo not drawn) | Eclipta prostrata | fresh weight, greenhouse postemergence | – | postemergence, 150 g ai/ha, 21 days | – | inhibition | 65.1 ± 2.52%
COc1cc(C(SC(C)C)SC(C)C)ccc1OCCNS(=O)(=O)c1ccc(Cl)cc1 | Tobacco mosaic virus | curative activity | plant in vivo | – | – | EC50 | 271 ± 3.7 µg/mL
CCCN1C(=O)C(CCC)(C(=O)OCC)Oc2cc(F)ccc21 (stereo not drawn) | Echinochloa crus-galli | fresh weight, greenhouse postemergence | – | postemergence, 150 g ai/ha, 21 days | – | inhibition | 56.6 ± 3.7%
[O-][N+]1=C(Cc2ccccc2)C2=NCCCN2c2ccccc21 | Prevotella spp. | bacterial growth | – | – | – | MIC90 | 4 µg/mL (≈ 13.7 µM)

Some of these lines once more:
SMILES | organism | test | system | setting | scale | measurement | value
CN(C(=O)c1ccn2ncc(-c3ccc(C(N)=O)cc3)c2c1)c1ccc(C#N)cn1 | Cryptosporidium parvum | – | UGA1 Nluc, IFN-gamma knockout C57BL/6 mice, faeces | oral, 10 mg/kg daily, 336 h post infection, treatment days 11-17 | higher means more parasites | faecal Nluc luminescence | 7330 a.u. and 899 a.u. and 717 a.u. and 195 a.u. and 236000 a.u.
O=C(NC1CC1)c1cc2c(s1)-c1ccccc1N(C(=O)c1ccc(NC(=O)c3cccnc3N3CCC4(CC3)COC4)cc1)CC2 | human respiratory syncytial virus | viral replication | – | – | – | IC50 | 200 nM
C[C@H]1O[C@@H](O[C@H]2CC[C@@]3(C)[C@H](C2)C[C@@H]2O[C@]24[C@@H]3C[C@@H](O)[C@]2(C)[C@@H](C3=CC(=O)OC3)CC[C@@]24O)[C@H](O)[C@H](O)[C@@H]1O[C@@H]1O[C@H](CO)[C@@H](O)[C@H](O)[C@H]1O | Oncopeltus fasciatus | – | – | diet, concentration not given | – | hatchlings per female | 121
COc1ccc(C2=[N+]([O-])c3ccccc3N3CCN=C23)cc1 | Parabacteroides distasonis and Bacteroides spp. | bacterial growth | – | – | – | MIC50 | ≤ 0.06 µg/mL
CC[C@H](C)[C@H](NC(=O)[C@H](CCCNC(=N)N)NC(=O)[C@H](CO)NC(=O)[C@H](Cc1ccc(O)cc1)NC(=O)[C@@H](NC(=O)[C@@H](NC(=O)[C@H](C)NC(=O)CNC(=O)[C@H](CCCCN)NC(=O)[C@H](CCCCN)NC(=O)CCNC(=O)CCCCCNC(=O)[C@H](CCCNC(=N)N)NC(=O)CCCCCNC(=O)[C@H](CCCNC(=N)N)NC(=O)[C@H](CCCNC(=N)N)NC(=O)CCCCCNC(=O)[C@H](CCCNC(=N)N)NC(=O)[C@H](CCCNC(=N)N)NC(=O)CCCCCNC(=O)[C@H](CCCNC(=N)N)NC(=O)[C@H](CCCNC(=N)N)NC(=O)CCCCCNC(=O)[C@@H](N)CCCNC(=N)N)C(C)C)[C@@H](C)O)C(=O)N[C@@H](CO)C(=O)NCC(=O)N[C@@H](CCC(N)=O)C(=O)N[C@@H](Cc1ccc(O)cc1)C(=O)N[C@@H](CCCCN)C(=O)O | Escherichia coli | – | ATCC 25922 | 1 h, 37 °C, after 90% human serum | – | MIC | 48 µM (≈ 171 µg/mL)
CNCCO.O=C(O)C(Cl)Cl | Eleusine indica | – | – | 15 mg/mL, 21 days, pre-emergence, greenhouse | – | herbicidal inhibition | 0%
